Published values gathered from unrelated publications.
Each line is one published result; not all experiments were run side by side. ± marks the error that the study gave.

Compound | target or system | test | system | conditions | scale | quantity | value
C#CCCCCCCCCCCCC(O)CC(O)CO (stereo not drawn) | Vero | cytotoxicity |  |  |  | IC50 | > 47.6 µg/mL
C[C@H](CCC(=O)O)[C@H]1CC[C@H]2[C@@H]3CC[C@@H]4C[C@H](O)CC[C@]4(C)[C@H]3CC[C@]12C | RWPE-1 | cell viability, MTT |  | 72 h |  | IC50 | 61 ± 1.6 µM
O=C(O)CNC(=O)Cc1ccccc1 |  |  | ventricular cardiomyocytes, C57BL/6 mouse | dose not given, 0.636 s |  | sarcomere length | 1.71 µm
O=C(O)COCC(=O)O | iPSC-derived hepatocytes B1 | cell viability |  | 48 h, differentiation day 23 |  | IC50 | 9650 µM
CN1CCN(c2ccc3nc(-c4c(N)c5c(F)cccc5[nH]c4=O)[nH]c3c2)CC1 | primary AML mononuclear cells, FLT3-ITD negative | cell viability, MTS |  | ex vivo |  | IC50 | 2.51 µM
COc1cccc2c1C(=O)c1c(O)c3c(c(O)c1C2=O)C[C@@](O)(C(=O)CO)C[C@@H]3O[C@H]1C[C@H](N)[C@H](O)[C@H](C)O1 | THLE-2 without CYP expression | cytotoxicity |  | 48 h |  | IC50 | 3.5 ± 1 µM
COc1ccc(COC[C@@](O)(CNCc2ccccc2)[C@@H]2CC[C@@H](C)C[C@H]2OCc2ccc(OC)cc2)cc1 | HeLa | cell growth, inhibitor, MTT |  | 72 h |  | IC50 | 3.67 µM
Cn1cc(-c2ccc(-c3cncc(Cl)c3N3CCC4(CCNC4=O)CC3)cc2)cn1 | COLO 205 | TCF/LEF reporter gene, inhibitor |  |  |  | IC50 | 0.038 µM
COc1nc(OCc2cccc(-c3ccccc3)c2C)ccc1CNCCNC(C)=O | LO2 | cell viability, MTT |  |  |  | IC50 | 2.5 µM
COc1cc2c(Oc3ccc(NC(=O)C4(C(=O)Nc5ccc(F)cc5)CC4)cc3F)ccnc2cc1OCCCN1CCOCC1 | Rh2 (embryonal rhabdomyosarcoma) | cell growth |  | 3 days |  | IC50 | 0.23 ± 0.06 µM
COC(=O)CN=c1scc(-c2ccccc2)n1-c1ccc(Cl)cc1 | Panc 04.03 | cell viability, MTT |  | 72 h |  | IC50 | 5.26 µM
NC(=O)c1ccc[n+]([C@@H]2O[C@H](COP(=O)([O-])O)[C@@H](O)[C@H]2O)c1 |  | binding, MIDAS equilibrium dialysis LC-MS | A2AR-BRIL thermostabilized | concentration not given | relative to: no-protein control | log2 fold change | -0.167
C[C@@H](Oc1cc(-c2cnn(C3CCNCC3)c2)cnc1N)c1c(Cl)ccc(F)c1Cl | Rh6 (embryonal rhabdomyosarcoma) | cell growth |  | 3 days |  | IC50 | 0.9 ± 0.15 µM
COc1cc2c3c(n(CCCNCCO)c(=O)c2cc1OC)-c1nc2c(cc1C3=O)OCO2 | CHLA-99 Ewing sarcoma cells | cytotoxicity, MTS |  | 72 h |  | IC50 | 0.031 ± 0.003 µM
Cc1c(C)c2c(c(C)c1O)CCC(C)(COc1ccc(CC3SC(=O)NC3=O)cc1)O2 (stereo not drawn) | iPSC-derived hepatocytes B1 | cell viability |  | 24 h, differentiation day 23 |  | IC50 | 81 µM
COc1cc(N2CCC(N3CCN(C)CC3)CC2)ccc1Nc1ncc(Cl)c(Nc2ccccc2S(=O)(=O)C(C)C)n1 | Rh2 (embryonal rhabdomyosarcoma) | cell growth |  | 3 days |  | IC50 | 0.18 ± 0.04 µM
CC(C)=CCC/C(C)=C/COc1ccc2ccc(=O)oc2c1 | COLO 320 multidrug-resistant | cytotoxicity, MTT |  | 24 h, 10% fetal bovine serum |  | IC50 | 47.3 µM

Compound | target or system | test | system | conditions | scale | quantity | value
CC1(C)CCC(CN2CCN(c3ccc(C(=O)NS(=O)(=O)c4ccc(NCC5CCOCC5)c([N+](=O)[O-])c4)c(Oc4cnc5[nH]ccc5c4)c3)CC2)=C(c2ccc(Cl)cc2)C1 | CD19+ B cells from healthy blood | cell viability, high-throughput flow cytometry |  |  |  | IC50 | 0.00423 µM
C[C@H](Nc1ccc2c(c1)OCCn1cc(N3C(=O)OC[C@H]3C(F)F)nc1-2)C(N)=O | MDA-MB-361 | growth rate inhibition, CellTiter-Glo |  | 120 h |  | IC50 | 0.0029 µM
C=C1C[C@](OC)([C@H](OCOC/C=C/B2OC(CC)(CC)C(CC)(CC)O2)C(=O)NC[C@@H]2C[C@@H](OC)C(C)(C)[C@@H](C[C@@H](COC)OC)O2)O[C@H](C)[C@@H]1C | Renca | cell viability, sulforhodamine B |  | 72 h, 37 °C, added: H2O2 100 µM |  | IC50 | 0.003 ± 0.0003 µM
CCCCN1C[C@H](O)[C@@H](O)[C@@H](O)[C@H]1CO | sample D patient fibroblasts | GlcCer level lowering, LC-MS/MS, item: GlcCer d18:1/16:0 |  | 216 h |  | IC50 | 20.5 µM
Nc1nc2cc(CC[C@H]3C[C@@H](n4ccc5c(N)ncnc54)[C@H](O)[C@@H]3O)ccc2cc1Br | PK-1 MTAP deleted | cell viability |  | 240 h |  | IC50 | 0.0007 µM
CC(C)(C)c1cc(NC(=O)Nc2ccc(-c3cn4c(n3)sc3cc(OCCN5CCOCC5)ccc34)cc2)no1 | primary AML mononuclear cells, FLT3-ITD negative | cell viability, MTS |  | ex vivo |  | IC50 | 2.33 µM
CC(C)c1ccccc1[C@@H]1CCCN1C1CC2(CCN(c3ccc(C(=O)NS(=O)(=O)c4ccc(NC[C@H]5CC[C@](C)(O)CC5)c([N+](=O)[O-])c4)c(Oc4cnc5[nH]ccc5c4)c3)CC2)C1 | RL | cell viability, CellTiter-Glo |  | 2 days |  | IC50 | 0.003 ± 0.00096 µM
COc1cc2c3c(n(CCCn4ccnc4)c(=O)c2cc1OC)-c1nc2c(cc1C3=O)OCO2 | CHLA-99 Ewing sarcoma cells | cytotoxicity, MTS |  | 72 h |  | IC50 | 0.265 ± 0.026 µM
CN(C)c1ccc2cc(C(=O)N[C@@H](CCCNC(=N)CCl)C(=O)NCc3ccccc3)ccc2c1 | LLC | cell viability, MTT |  | 48 h |  | IC50 | 6.1 ± 1.6 µM
COc1ccc(F)cc1C(=O)NCc1ccc(-c2nn([C@@H](C)C(F)(F)F)c(N)c2C(N)=O)cc1 | healthy-donor PBMC CD19+ B cells | item: CD69 |  | added: anti-IgM |  | IC50 | 0.0047 ± 0.0017 µM
C[C@@H]1CC[C@@H]([C@](C)(O)CNCc2ccccc2F)[C@H](OCc2ccccc2)C1 | HeLa | cell growth, inhibitor, MTT |  | 72 h |  | IC50 | 6.51 µM
COC(=O)CN=c1scc(-c2ccccc2)n1-c1ccc(C)cc1 | Panc 04.03 | cell viability, MTT |  | 72 h |  | IC50 | 44.6 µM
COc1cccc2c1C(=O)c1c(O)c3c(c(O)c1C2=O)C[C@@](O)(C(=O)CO)C[C@@H]3O[C@H]1C[C@H](N)[C@H](O)[C@H](C)O1 | S102 | cytotoxicity, MTT |  | 75 h |  | IC50 | 1.98 µM
O=c1ccn([C@@H]2O[C@H](COP(=O)(O)O)[C@@H](O)[C@H]2O)c(=O)[nH]1 |  | binding, MIDAS equilibrium dialysis LC-MS | A2AR-BRIL thermostabilized | concentration not given | relative to: no-protein control | log2 fold change | -0.0722
Cc1c(C(=O)O)ccc2c3n(nc12)[C@@H]1[C@H](C3)N(CC2CC2)[C@@]2(C(=O)Nc3cc(Cl)ccc32)[C@H]1c1cccc(Cl)c1F | MDM2-amplified well-differentiated liposarcoma cells | alamarBlue |  | 120 h |  | IC50 | 0.005 µM
CCc1cc2ncc(CN3CCN(c4ccc(C(=O)NC)nc4)CC3)cc2[nH]c1=O | SK-OV-3 PALB2 knockout | colony formation |  |  |  | IC50 | 0.00042 µM

Excerpt of the above:
Compound | target or system | test | system | conditions | scale | quantity | value
NC(=O)c1ccc[n+]([C@@H]2O[C@H](COP(=O)([O-])O)[C@@H](O)[C@H]2O)c1 |  | binding, MIDAS equilibrium dialysis LC-MS | A2AR-BRIL thermostabilized | concentration not given | relative to: no-protein control | log2 fold change | -0.167
C[C@@H]1CC[C@@H]([C@](C)(O)CNCc2ccccc2F)[C@H](OCc2ccccc2)C1 | HeLa | cell growth, inhibitor, MTT |  | 72 h |  | IC50 | 6.51 µM
Cn1cc(-c2ccc(-c3cncc(Cl)c3N3CCC4(CCNC4=O)CC3)cc2)cn1 | COLO 205 | TCF/LEF reporter gene, inhibitor |  |  |  | IC50 | 0.038 µM
